{"data": "Literature values as cited in several papers", "note": "± gives the spread as reported.", "sequence of UniProt Q96BR1 (whole entry, looked up)": "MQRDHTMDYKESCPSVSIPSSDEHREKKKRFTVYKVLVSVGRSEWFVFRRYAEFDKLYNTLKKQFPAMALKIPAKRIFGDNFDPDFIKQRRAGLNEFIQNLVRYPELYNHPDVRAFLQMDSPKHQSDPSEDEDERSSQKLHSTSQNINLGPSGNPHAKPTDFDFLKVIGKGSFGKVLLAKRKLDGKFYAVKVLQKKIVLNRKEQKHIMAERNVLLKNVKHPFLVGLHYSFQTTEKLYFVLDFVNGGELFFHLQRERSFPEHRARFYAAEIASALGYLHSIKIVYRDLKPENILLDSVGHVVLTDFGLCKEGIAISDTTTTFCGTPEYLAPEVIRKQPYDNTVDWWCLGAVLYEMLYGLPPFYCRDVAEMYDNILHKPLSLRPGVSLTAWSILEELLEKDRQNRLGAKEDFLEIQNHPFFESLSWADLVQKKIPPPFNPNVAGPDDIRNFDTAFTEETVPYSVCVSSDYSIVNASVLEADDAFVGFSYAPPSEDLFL"}
{"Compound": "CC(C)(C)c1ccc(Nc2ncnc3sc(Nc4c(Cl)cccc4Cl)nc23)cc1", "tested on": "TRPV1", "test": "calcium flux, antagonist", "system": "HEK293", "setting": "added: capsaicin", "measurement": "IC50", "result": "0.011 µM"}
{"Compound": "O=S(=O)(NCCNCC=Cc1ccc(Br)cc1)c1cccc2cnccc12", "tested on": "PKA catalytic subunit alpha", "test": "Z’-LYTE", "setting": "added: 10 µM ATP", "measurement": "IC50", "result": "0.018 µM"}
{"Compound": "C[C@H](NC(=O)[C@H](CC(=O)NCC(C)(C)C)NC(=O)c1ccc(C(=O)NO)cc1)C(=O)NCc1ccccc1", "tested on": "proteasome", "test": "chymotrypsin-like activity, inhibitor", "system": "SEM", "measurement": "IC50", "result": "0.394 µM"}
{"Compound": "CN(C)CCCC1(c2ccc(F)cc2)OCc2cc(C#N)ccc21 (centres unmarked)", "tested on": "sigma-1 receptor", "setting": "literature value", "measurement": "IC50", "result": "0.3 µM"}
{"Compound": "O=C(O)c1cc(N2N=C(C(F)(F)F)/C(=C/c3ccc(-c4ccccc4)o3)C2=O)ccc1Cl", "tested on": "ERO1α", "test": "inhibitor", "measurement": "IC50", "result": "1.9 µM"}
{"Compound": "CO[C@@H]1COCC[C@@H]1N[C@@H]1C[C@H]2CCC[C@@]2(C(=O)N2C[C@@H]3C[C@H]2CN3c2cccc(OC(F)(F)F)c2)C1", "tested on": "CCR2", "setting": "3D-QSAR training set", "measurement": "IC50", "result": "0.148 µM"}
{"Compound": "O=C(CCc1ccc(C(F)(F)F)cc1)Nc1cccc2cnccc12", "tested on": "TRPV1", "test": "calcium flux, antagonist", "system": "HEK293", "setting": "added: capsaicin", "measurement": "IC50", "result": "0.038 µM"}
{"Compound": "COc1cc(N2CCC3(CCN(C)CC3)CC2)ccc1Nc1ncc(Cl)c(Nc2ccccc2P(C)(C)=O)n1", "tested on": "ALK C1156Y", "measurement": "IC50", "result": "0.009 µM"}
{"Compound": "Cc1cnc(NC(=O)c2cc(S(=O)(=O)N(C)C)ccc2N2CCCC2)s1", "tested on": "oligosaccharyltransferase", "measurement": "IC50", "result": "~1 µM"}
{"Compound": "CC(C)=CCC/C(C)=C/CNCCNC1C2CC3CC(C2)CC1C3 (centres unmarked)", "tested on": "Staphylococcus aureus farnesyl diphosphate synthase", "test": "enzyme activity, inhibitor", "measurement": "IC50", "result": "≥ 50 µM"}
{"Compound": "COc1ccc(CNc2c(CO)cnc3c(C4CC4)cc(C#N)cc23)cc1Cl", "tested on": "PDE7", "test": "inhibitor", "measurement": "IC50", "result": "> 10 µM"}
{"Compound": "CCCCCCCC/C=C\\CCCCCCCC(=O)NCCO", "tested on": "acid ceramidase", "test": "enzyme activity, radiometric", "system": "HL-60", "measurement": "IC50", "result": "> 500 µM"}
{"Compound": "CC(C)(O/N=C(\\C(=O)N[C@@H]1C(=O)N2C(C(=O)[O-])=C(C[n+]3ccccc3)CS[C@H]12)c1csc(N)n1)C(=O)O", "tested on": "Escherichia coli", "system": "clinical isolate RKI 131/08", "measurement": "MIC", "result": "≤ 2 µg/mL"}
{"Compound": "CC(=O)N1CCc2c(c(N3CCCc4cc(-c5cnn(C)c5)c(C(F)F)cc43)nn2C2CCOCC2)C1", "tested on": "PI3Kγ", "measurement": "IC50", "result": "0.158 µM"}
{"Compound": "CC(C)(C)c1ccc(NC(=O)c2ccc(-c3ccccn3)cc2)cc1", "tested on": "TRPV1", "test": "calcium flux, antagonist", "system": "HEK293", "setting": "added: capsaicin", "measurement": "IC50", "result": "0.011 µM"}
{"Compound": "CN1C(C(=O)Nc2ccccn2)=C(O)c2sc(Cl)cc2S1(=O)=O", "tested on": "NR4A3 (NOR-1)", "test": "inverse agonist, cellular", "measurement": "IC50", "result": "24 ± 3 µM"}
{"Compound": "CNCCCN1c2ccccc2CCc2ccccc21", "tested on": "sigma-2 receptor", "setting": "literature value", "measurement": "IC50", "result": "11 µM"}
{"Compound": "COc1ccnc2[nH]cc(-c3ccnc(N)n3)c12", "tested on": "CDK2", "measurement": "IC50", "result": "0.011 µM"}
{"Compound": "CCCCCOC(=O)/C=C/c1ccc(O)c(O)c1", "tested on": "xanthine oxidase", "test": "inhibitor", "measurement": "IC50", "result": "18 ± 0.9 µM"}
{"Compound": "O=C(Nc1cccc2cnccc12)NC1CCc2cc(F)ccc2C1Cc1ccc(C(F)(F)F)cc1 (centres unmarked)", "tested on": "TRPV1", "test": "calcium flux, antagonist", "system": "HEK293", "setting": "added: capsaicin", "measurement": "IC50", "result": "0.01 µM"}
{"Compound": "CCN(CC)CCCCNc1ncc2cc(-c3cc(OC)cc(OC)c3)c(NC(=O)NC(C)(C)C)nc2n1", "tested on": "VEGFR1-3", "test": "inhibitor", "measurement": "IC50", "result": "0.15 µM"}
{"Compound": "CCCCCCCCCCCCOC(=O)c1cc(O)c(O)c(O)c1", "tested on": "xanthine oxidase", "test": "inhibitor", "measurement": "IC50", "result": "49 ± 0.21 µM"}
{"Compound": "CC(C)(C)c1ccc(NC(=O)c2ccc(-c3ncccc3Cl)cc2)cc1", "tested on": "TRPV1", "test": "calcium flux, antagonist", "system": "HEK293", "setting": "added: capsaicin", "measurement": "IC50", "result": "0.008 µM"}
{"Compound": "N[C@@H](CCC(=O)O)C(=O)O", "tested on": "kainate glutamate receptor", "test": "radioligand binding", "measurement": "IC50", "result": "0.24 µM"}
{"Compound": "C=C[C@](C)(O)CC[C@H]1C(=C)CC[C@H]2C(C)(C)CCC[C@]12C", "tested on": "carbonic anhydrase IX", "measurement": "IC50", "result": "0.16 ± 0.015 µM"}
{"Compound": "CCOCC1(COCC)CCC(c2n[nH]cc2CN(C)CCNC)CC1", "tested on": "CARM1 (PRMT4)", "test": "enzyme activity, inhibitor", "measurement": "IC50", "result": "0.038 µM"}
{"Compound": "COC(=O)/C=C/c1ccc(O)c(O)c1", "tested on": "xanthine oxidase", "test": "inhibitor", "measurement": "IC50", "result": "143 ± 13 µM"}
{"Compound": "CCN(CC)CCOC(=O)c1ccc(N)cc1", "tested on": "sodium channel", "measurement": "IC50", "result": "60 µM"}
{"Compound": "CCCCCCCCCCCCCCOc1ccccc1NC(=O)c1ccccc1C(=O)O", "tested on": "PTP1B", "test": "competitive inhibitor", "measurement": "IC50", "result": "0.78 µM"}
{"Compound": "COC(=O)c1cn(C)c2ccc(-c3cccnc3)cc12", "tested on": "NR4A2 (Nurr1)", "test": "inverse agonist, cellular", "measurement": "IC50", "result": "3.8 µM"}
{"Compound": "N[C@@H](CCC(=O)O)C(=O)O", "tested on": "kainate glutamate receptor", "test": "binding", "setting": "historical reference value", "measurement": "IC50", "result": "0.24 µM"}
{"Compound": "O=C1C[C@@H](c2ccc(O)cc2)Oc2cc(O)cc(O)c21", "tested on": "MAO-B (rat)", "test": "inhibitor", "measurement": "IC50", "result": "288 µM"}
{"Compound": "CN1CCC[C@@H]1COc1nc(N2CCNCC2)c2cnc(-c3cc(O)cc4ccccc34)c(F)c2n1", "tested on": "KRAS", "measurement": "IC50", "result": "0.98 µM"}
{"Compound": "CC(C)c1cc(C(=O)N2Cc3ccc(CN4CCN(C)CC4)cc3C2)c(O)cc1O", "tested on": "Hsp90", "test": "inhibitor", "measurement": "IC50", "result": "0.018 µM"}
{"Compound": "NCCC(Oc1ccc(C(F)(F)F)cc1)c1ccccc1 (centres unmarked)", "tested on": "sigma-2 receptor", "setting": "literature value", "measurement": "IC50", "result": "35 µM"}
{"Compound": "CC(C)(C)c1ccc(C2=NC(=Cc3cccs3)C(=O)O2)cc1", "tested on": "pendrin", "test": "inhibitor", "setting": "concentration not given", "measurement": "IC50", "result": "4.7 µM"}
{"Compound": "Nc1cc(C(F)(F)F)c(-c2nc(N3CCOCC3)nc(N3CCOCC3)n2)cn1", "tested on": "Serine/threonine-protein kinase Sgk3 (SGK3, Homo sapiens, UniProt Q96BR1)", "test": "enzyme activity", "setting": "10 µM", "how to read": "relative to: untreated", "measurement": "remaining activity", "result": "89%"}
{"Compound": "COc1cc(/C=C/C(=O)CC(=O)/C=C/c2ccc(O)c(OC)c2)ccc1O", "tested on": "xanthine oxidase", "test": "inhibitor", "measurement": "IC50", "result": "26 ± 0.88 µM"}
{"Compound": "CNC(C)C1CCC(N)C(OC2C(N)CC(N)C(OC3OCC(C)(O)C(NC)C3O)C2O)O1 (centres unmarked)", "tested on": "Acinetobacter baumannii", "system": "clinical isolate RKI-No_584/16", "measurement": "MIC", "result": "1 µg/mL"}
{"Compound": "CN(C/C=C/C(=O)N1CCC[C@@H](n2nc(-c3ccc(Oc4ccccc4)cc3)c3c(N)ncnc32)C1)CCCNC(=O)CNc1cccc2c1C(=O)N(C1CCC(=O)NC1=O)C2=O (some centres unmarked)", "tested on": "BTK", "test": "target engagement, NanoBRET", "system": "HEK-293T expressing BTK-NanoLuc", "setting": "2 h, added: tracer 1 µM", "measurement": "IC50", "result": "0.13 µM"}
{"Compound": "O=C(NCc1ccc(C(F)(F)F)cc1)Nc1cccc2cnccc12", "tested on": "TRPV1", "test": "calcium flux, antagonist", "system": "HEK293", "setting": "added: capsaicin", "measurement": "IC50", "result": "0.005 µM"}
{"Compound": "NC(=O)N1c2ccccc2C=Cc2ccccc21", "tested on": "sodium channel", "system": "rat brain synaptosomes", "measurement": "IC50", "result": "131 µM"}
{"Compound": "Cn1c2c(c3cc(O)ccc31)C(CNC(=O)c1ccc(OC(F)(F)F)cc1)CCC2 (centres unmarked)", "tested on": "TRPV1", "test": "calcium flux, antagonist", "system": "HEK293", "setting": "added: capsaicin", "measurement": "IC50", "result": "0.023 µM"}
{"Compound": "N=C(NCCCSC[C@H]1O[C@@H](n2cnc3c(N)ncnc32)[C@H](O)[C@@H]1O)Nc1ccccc1Br", "tested on": "CARM1 (PRMT4)", "test": "enzyme activity, inhibitor", "measurement": "IC50", "result": "0.00505 µM"}
{"Compound": "COC1COCCC1NC1CC2OCCC2(C(=O)N2CCc3ncc(C(F)(F)F)cc3C2)C1 (centres unmarked)", "tested on": "CCR2", "setting": "3D-QSAR training set", "measurement": "IC50", "result": "0.093 µM"}
{"Compound": "COc1cc2c(Nc3ccc(Cl)c(Cl)c3F)ncnc2cc1OC[C@@H]1C[C@@H]2CN(C)C[C@@H]2C1", "tested on": "SRC", "measurement": "IC50", "result": "0.0103 µM"}
{"Compound": "CN(C)CCCN1c2ccccc2CCc2ccccc21", "tested on": "sigma-2 receptor", "setting": "literature value", "measurement": "IC50", "result": "2 µM"}
{"Compound": "O=C(CCc1ccc(Cl)c(Cl)c1)Nc1cccc2ccc(O)cc12", "tested on": "TRPV1", "test": "calcium flux, antagonist", "system": "HEK293", "setting": "added: capsaicin", "measurement": "IC50", "result": "0.017 µM"}
{"Compound": "CCC(=O)NS(=O)(=O)c1ccc(-c2c(-c3ccccc3)noc2C)cc1", "tested on": "NR4A3 (NOR-1)", "test": "inverse agonist, cellular", "measurement": "IC50", "result": "25 ± 4 µM"}
{"Compound": "NCCCCC(=O)O", "tested on": "taurine transporter TauT", "setting": "literature value", "measurement": "IC50", "result": "1420 µM"}
{"Compound": "COCCNc1nc2ccc(C#CC3(O)CCCCC3)cc2n1-c1ccnc(N)n1", "tested on": "PAK5", "test": "inhibitor", "measurement": "IC50", "result": "0.126 µM"}
{"Compound": "NC(=O)N1c2ccccc2CC(=O)c2ccccc21", "tested on": "sodium channel", "test": "binding", "setting": "added: [3H]batrachotoxin", "measurement": "IC50", "result": "160 µM"}
{"Compound": "CO[C@@H]1COCC[C@@H]1N[C@@H]1C[C@H]2CCC[C@@]2(C(=O)N2C[C@@H]3C[C@H]2CN3c2cc(C(F)(F)F)ccc2C)C1", "tested on": "CCR2", "setting": "3D-QSAR training set", "measurement": "IC50", "result": "0.106 µM"}
